Results gathered from unrelated publications.
Numbered parts are unrelated; each lists some results of a single study. Changes are numbered by the printed parent chain.

Sample 1
Target: Myc proto-oncogene protein, bHLH-zipper, MAX partner unstated (MYC, Homo sapiens, UniProt P01106, residues 368-449)
UniProt P01106, sequence (368-449, looked up): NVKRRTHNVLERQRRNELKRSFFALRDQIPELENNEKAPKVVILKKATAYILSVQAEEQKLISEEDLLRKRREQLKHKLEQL
Technique: protein-binding microarray
Molecule type: double-stranded DNA, one strand shown
Medium: in vitro
Concentration: not given
Setting: k-mer, scored over probes, only values ≥0.25
Direction: higher = stronger binding
Measurement: E-score
CATGTAAA: 0.256
AGCGTGTG: 0.351
ATGGGGAG: 0.25
CCCCGCAC: 0.347
CGTGGACA: 0.384
CGTGCAAC: 0.36
CACGCTCC: 0.37
ACCTCCCC: 0.299
CTCATGCA: 0.305
GCGTGCTA: 0.432
AATCGTGC: 0.278
ACGCGTTA: 0.318
AACGTGCA: 0.387

Sample 2
Target: Histone acetyltransferase KAT6A, winged helix 1, GST fusion (KAT6A, Homo sapiens, UniProt Q92794, residues 1-85)
Technique: protein binding microarray
Molecule type: double-stranded DNA, one strand shown
Medium: in vitro
Concentration: not given
Setting: 8-mer, flanks averaged, mean of 2 arrays, mostly near background
Relative to: not given
Direction: higher = stronger binding
Measurement: E-score
Residues (chain): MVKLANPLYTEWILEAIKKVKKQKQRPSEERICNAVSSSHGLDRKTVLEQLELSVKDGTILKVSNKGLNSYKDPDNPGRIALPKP
CGGGGGTC: 0.259
ACCATCCC: -0.112
AATAACCA: -0.337
ACCGAGCA: -0.0101
ACAGCACT: -0.109
AAATGGAG: -0.0958
GTAAATTA: 0.0372
GACTTTCA: -0.0345
ATGCAGCG: 0.167

Sample 3
Target: Sal-like protein 4, full length isoform A (SALL4, Homo sapiens, UniProt Q9UJQ4, residues 1-1053)
UniProt Q9UJQ4, sequence (whole entry, looked up): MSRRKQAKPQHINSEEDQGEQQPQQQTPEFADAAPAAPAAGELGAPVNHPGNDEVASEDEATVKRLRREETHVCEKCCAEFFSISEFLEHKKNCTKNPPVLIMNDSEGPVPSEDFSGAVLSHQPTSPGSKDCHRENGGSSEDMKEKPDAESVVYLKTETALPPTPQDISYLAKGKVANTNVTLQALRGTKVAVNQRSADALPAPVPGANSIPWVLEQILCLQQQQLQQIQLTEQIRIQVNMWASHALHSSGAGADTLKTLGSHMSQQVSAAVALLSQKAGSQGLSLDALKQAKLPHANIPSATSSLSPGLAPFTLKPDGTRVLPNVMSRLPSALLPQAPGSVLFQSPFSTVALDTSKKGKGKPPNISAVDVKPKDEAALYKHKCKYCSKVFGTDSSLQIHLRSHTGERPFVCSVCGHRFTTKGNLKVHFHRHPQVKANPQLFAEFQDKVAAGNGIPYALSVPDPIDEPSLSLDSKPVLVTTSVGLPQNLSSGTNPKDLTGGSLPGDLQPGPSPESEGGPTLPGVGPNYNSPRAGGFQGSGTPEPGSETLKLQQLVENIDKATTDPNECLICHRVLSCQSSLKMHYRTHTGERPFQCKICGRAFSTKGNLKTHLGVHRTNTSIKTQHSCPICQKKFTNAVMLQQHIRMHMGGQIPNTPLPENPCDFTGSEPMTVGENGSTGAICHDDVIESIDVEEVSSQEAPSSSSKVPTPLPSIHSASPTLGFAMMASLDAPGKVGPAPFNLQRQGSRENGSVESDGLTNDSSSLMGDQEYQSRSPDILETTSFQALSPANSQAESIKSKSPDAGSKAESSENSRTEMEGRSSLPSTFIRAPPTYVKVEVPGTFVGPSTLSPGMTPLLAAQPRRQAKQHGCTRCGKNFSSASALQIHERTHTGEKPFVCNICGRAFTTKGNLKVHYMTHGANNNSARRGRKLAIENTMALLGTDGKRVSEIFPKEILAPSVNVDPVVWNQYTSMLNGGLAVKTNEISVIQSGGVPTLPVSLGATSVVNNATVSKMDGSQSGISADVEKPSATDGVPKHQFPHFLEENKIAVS
Technique: universal PBM
Molecule type: double-stranded DNA, one strand shown
Medium: in vitro
Concentration: 600 nM
Setting: 8-mer, flanks averaged, mean of replicates
Direction: higher = stronger binding
Measurement: E-score
CAACGGCA: -0.169
AAAGTCAC: 0.0865
CACTCTAA: 0.114
TGGACTAA: 0.0399
ATGGACGA: 0.131
ATCATTCG: 0.224
AACATTCT: 0.232
AAGCCACA: 0.0198
CCCATCGC: -0.238
CGACACAG: -0.0817
AACATCTT: 0.101
GAACCCCC: -0.419
CGGCTCCC: -0.402
ACCCCCCA: -0.264
CTCATTTA: 0.171
AACCTGCA: -0.0937
ACAGGGGC: -0.306
GTTAGGCA: 0.0655
ACACGTTC: 0.118
GTTTCCTA: 0.127
ATCGCTAG: 0.0624
AGAACATA: 0.237
CTATTAAA: 0.283
GCGTGAGA: -0.0487
GCCCGCGC: -0.381

Sample 4
Target: Interferon regulatory factor 7, full length, phosphomimetic (IRF7, Homo sapiens, UniProt Q92985, residues 1-503, S101K/S471D/S472D/S475D/S476D/S477D/S483D/S484D/S487D)
Technique: protein-binding microarray
Molecule type: double-stranded DNA, one strand shown
Medium: in vitro
Concentration: 250 nM
Setting: 60-bp whole probe
Added: salmon DNA 0.4 mg/ml
Relative to: random background probes
Direction: higher = stronger binding
Measurement: log fluorescence
Constant ends, left off below: GCCTAGCAC … GTCTTGATTCGCTTGACGCTGCTG
Construct (chain): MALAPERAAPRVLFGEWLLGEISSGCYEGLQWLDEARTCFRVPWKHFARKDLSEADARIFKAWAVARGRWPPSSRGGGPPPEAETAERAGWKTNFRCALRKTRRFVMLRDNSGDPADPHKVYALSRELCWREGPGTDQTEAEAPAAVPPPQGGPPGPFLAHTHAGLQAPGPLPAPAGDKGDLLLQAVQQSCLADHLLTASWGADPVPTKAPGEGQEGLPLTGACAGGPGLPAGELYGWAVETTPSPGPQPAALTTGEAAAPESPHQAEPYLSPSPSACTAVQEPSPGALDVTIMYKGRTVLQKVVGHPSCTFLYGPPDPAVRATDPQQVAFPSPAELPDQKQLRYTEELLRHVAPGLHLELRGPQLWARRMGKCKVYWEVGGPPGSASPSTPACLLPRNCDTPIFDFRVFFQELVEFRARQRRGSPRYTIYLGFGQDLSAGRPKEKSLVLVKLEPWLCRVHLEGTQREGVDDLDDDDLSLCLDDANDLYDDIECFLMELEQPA
ACACTTTCCCCTTCCTAGTTGTGCTAG: 2.67 z-score
TTAGGACTAGGGACTGGGTTAGTGCTA: 0.124 z-score
TTAGATATCAGTATCTATTAGTGCTAG: 0.353 z-score
GCTCCAGGAAGCCTTGCCTGGTGCTAG: -0.599 z-score
GACGGACTGGGGCTGGGGACGTGCTAG: -0.455 z-score
GACGGTCGCCTTCTCCTGACGTGCTAG: -0.722 z-score
TTAGGTCTCGGACCGGGTTAGTGCTAG: 0.672 z-score
GACGGTGTCGGTATCGGGACGTGCTAG: -0.287 z-score
GACCTTTTTAAGATCTGTGCGTGCTAG: 0.892 z-score
ATAGGTTTCGACTATCGGTTAGTGCTA: 5.68 z-score
TCACCGTTTCTTCTAGAACTGTGCTAG: 1.33 z-score
AGAAACTTTTTTCTGATTGAGTGCTAG: 1.7 z-score

Sample 5
Target: ABI1, truncated, D143A, DHFR fusion (Arabidopsis thaliana)
Technique: DHFR PCA, deep sequencing
Medium: yeast
Setting: methotrexate growth selection, single substitutions
Added: (+)-ABA 0.39 µM
Relative to: wild-type fitted maximum
Direction: higher = stronger binding
Measurement: relative binding score
Starting sequence: PYL1, truncated, DHFR fusion (Arabidopsis thaliana); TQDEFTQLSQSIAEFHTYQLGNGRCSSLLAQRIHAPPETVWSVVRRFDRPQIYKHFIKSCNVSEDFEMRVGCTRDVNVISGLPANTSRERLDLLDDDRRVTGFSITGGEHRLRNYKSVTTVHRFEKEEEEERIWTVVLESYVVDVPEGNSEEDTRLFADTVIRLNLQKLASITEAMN
S26L: -1.78%
F5R: 23.8%
V161D: -3.85%
H16E: -0.851%
G23C: 4.44%
R90F: -17.4%
W41T: -10.8%
D153H: -1.67%
V143E: -1.49%
K58C: -2.06%
S80G: 3.49%
R113S: 30.5%

Sample 6
Target: POU domain, class 6, transcription factor 1, POU and homeodomain (POU6F1, Homo sapiens, UniProt Q14863, residues 311-611)
Technique: protein-binding microarray
Molecule type: hairpin DNA
Medium: in vitro
Concentration: not given
Setting: whole hairpin DNA, median over replicate spots
Relative to: not given
Direction: higher = stronger binding
Measurement: median fluorescence
Constant ends, left off below: GAGGCC … GGCCTCACACTCTT
Target sequence (chain): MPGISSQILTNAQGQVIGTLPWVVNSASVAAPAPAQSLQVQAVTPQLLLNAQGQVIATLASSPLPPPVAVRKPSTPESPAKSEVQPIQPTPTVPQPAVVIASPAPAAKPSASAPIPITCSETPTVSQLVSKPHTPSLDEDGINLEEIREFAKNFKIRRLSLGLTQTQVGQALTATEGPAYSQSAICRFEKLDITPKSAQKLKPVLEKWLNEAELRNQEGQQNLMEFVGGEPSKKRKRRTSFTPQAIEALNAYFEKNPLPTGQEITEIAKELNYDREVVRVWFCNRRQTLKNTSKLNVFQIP
CTAATTAGGTGCCTCCTGGCACCTAATTAG (5mC at 7): 1370 a.u.
ATAATTAGATGCCTCCTGGCATCTAATTAT: 10700 a.u.
ATGATTAGGTGCCTCCTGGCACCTAATCAT: 482 a.u.
ATTATTAGGTGCCTCCTGGCACCTAATAAT: 579 a.u.
ATAATCGGGTGCCTCCTGGCACCCGATTAT: 426 a.u.
ATAATTCGGTGCCTCCTGGCACCGAATTAT: 525 a.u.
ACGATGAGGTGCCTCCTGGCACCTCATCGT (5mC at 34): 339 a.u.
CGAATGAGGTGCCTCCTGGCACCTCATTCG (5mC at 35): 380 a.u.
ACAATGAGGTGCCTCCTGGCACCTCATTGT: 496 a.u.
ATAATTGGGTGCCTCCTGGCACCCAATTAT: 587 a.u.
ATATTGAGGTGCCTCCTGGCACCTCAATAT: 384 a.u.
ATAGTTAGGTGCCTCCTGGCACCTAACTAT: 370 a.u.
ATGATTAGGTGCCTCCTGGCACCTAATCAT (5mC at 34): 470 a.u.
ACGATTAGGTGCCTCCTGGCACCTAATCGT (5mC at 8): 374 a.u.
ATAATGAGCGGCCTCCTGGCCGCTCATTAT: 1860 a.u.
ATAATCAGGTGCCTCCTGGCACCTGATTAT (5mC at 12): 549 a.u.

Sample 7
Target: CCNF, cyclin fold, Cln2 fusion (human)
Technique: yeast growth competition, sequencing
Medium: yeast
Setting: strong parent motif
Relative to: not given
Direction: higher = stronger binding
Measurement: normalised enrichment score
Starting sequence: PKMYT1 docking peptide (human); SFEPRNLLSLFED
SFEPRNLLSLFRD [E12R]: 0.561
SFEPRNLLLLFED [S9L]: 0.946
SMEPRNLLSLFED [F2M]: 0.779
SFEPWNLLSLFED [R5W]: -2.13
SFEPRNLLSLFMD [E12M]: 1.1
SFEPRNLLHLFED [S9H]: 1.2
SFEPRNLLSLQED [F11Q]: -0.293
SEEPRNLLSLFED [F2E]: -0.11
SFEPRNMLSLFED [L7M]: -1.21

Some of these lines once more (sample 7):
SFEPRNLLLLFED [S9L]: 0.946
SMEPRNLLSLFED [F2M]: 0.779
SFEPWNLLSLFED [R5W]: -2.13
SFEPRNLLSLFMD [E12M]: 1.1
SFEPRNLLHLFED [S9H]: 1.2
SFEPRNLLSLQED [F11Q]: -0.293
